# Results pooled from the literature.
# Compare with care: the assays were run in different laboratories. Values joined by “and” are separate records of one study, mostly repeats; a detail may differ.
# rep main protease: Replicase polyprotein 1ab, main protease (rep, Severe acute respiratory syndrome coronavirus 2, UniProt P0DTD1)
Substance,tested on,test,test system,conditions,how to read,quantity,result
COc1ccc(C[C@@H]2c3cc(Oc4cc(C[C@@H]5c6cc(O)c(OC)cc6CCN5C)ccc4O)c(OC)cc3CCN2C)cc1,SARS-CoV-2,viral replication,Vero E6,25 µM,baseline: mean of replicates,CPE inhibition,0%
Cc1nn(-c2ccc(Cl)cc2)c2c1C(c1ccc(Cl)cc1)C(C#N)=C(N)O2 (stereo not shown),SARS-CoV-2,"RT-qPCR, measured: viral RNA",Vero,1 µM,higher means less virus,Ct value,23 cycles
CNC(=O)[C@@H](NC(=O)[C@H](CC(C)C)[C@H](O)C(=O)NO)C(C)(C)C,C2C12,,,"10 µM, added: MH venom",baseline: venom alone,viability difference,13.5%
COc1ccc(Nc2cc(C(=O)NCCCN3CCN(c4ccc(OC)cc4)CC3)c3ccccc3n2)cc1,SARS-CoV-2,"cytopathic effect, cell-based CPE",USA_WA1/2020,"round 2, 5-point dilution",,AC50,12.6 µM
Oc1cc2c(cc1O)[C@H]1c3ccccc3CN[C@@H]1CC2 (racemic),SARS-CoV-2,"viral replication, GFP plate reader screen",,cell-based,,EC50,7.94 µM
CCC(CC)COC(=O)[C@H](C)N[P@](=O)(OC[C@H]1O[C@@](C#N)(c2ccc3c(N)ncnn23)[C@H](O)[C@@H]1O)Oc1ccccc1,SARS-CoV-2,viral replication,"Huh-7-ACE2, USA-WA1/2020",,,EC90,0.0063 µM
CC(=O)c1cccc(NC(=O)c2cc3c(=O)n4ccccc4nc3n2C)c1,SARS-CoV-2,viral replication,Vero E6,,,EC50,0.107 µM
CC(C)(O)c1ccc2c(c1)ncn2-c1cccc(-c2ccccc2C#N)c1,SARS-CoV-2,viral replication,"Vero E6, USA-WA1/2020",2.5 µM,,inhibition,47.9%
CS(=O)(=O)CCNCc1ccc(-c2ccc3ncnc(Nc4ccc(OCc5cccc(F)c5)c(Cl)c4)c3c2)o1,SARS-CoV-2,viral replication,Huh-7,,,IC50,> 2 µM
Cc1ccc(NS(=O)(=O)c2cccc(C(=O)NC3CCN(c4ncnc5[nH]cnc45)CC3)c2)cc1,SARS-CoV-2,,"A549-ACE2, Wuhan-Hu-1",2.469 µM,baseline: untreated,relative infection,76.8%
CCCCN(CCCC)CCCNC(=O)c1ccc2nc(N3CCCCC3)sc2c1,SARS-CoV-2,"cytopathic effect, cell-based CPE",USA_WA1/2020,"round 2, 5-point dilution",,AC50,11.2 µM
Nc1ncnc2c([C@@H]3N[C@H](CO)[C@@H](O)[C@H]3O)c[nH]c12,Marburg virus,viral RNA in cell lysate,"HeLa, Musoke","25 µM, 12 h",,inhibition,84.9%
C=CCN1CC[C@@]2(C)c3cc(O)ccc3C[C@@H]1[C@@H]2C,SARS-CoV-2,"viral replication, anti-nucleoprotein immunostaining",Vero E6,,,IC50,> 10 µM
CCNC(=O)c1cc2c(-c3cc(C(C)(C)O)ccc3Oc3c(C)cc(F)cc3C)cn(C)c(=O)c2[nH]1,SARS-CoV-2,,,"concentration not given, Paris laboratory",,viral replication inhibition,inactive
CCN(CC)CCOC1(c2ccccc2)CCN(CCNc2ccccc2)CC1,SARS-CoV-2,"viral replication, GFP plate reader screen",,cell-based,,EC50,9.55 µM
Cc1nn(-c2ccc(Cl)cc2)c2c1C(c1ccc(F)cc1F)C(C#N)=C(N)O2 (stereo not shown),SARS-CoV-2,,Vero,10 µM,,viral titre,544000 IU/mL
Cc1ccc(S(=O)(=O)N[C@@H](Cc2ccccc2)C(=O)CCl)cc1,rep main protease,"reporter gene (Gaussia luciferase), inhibitor",,20 µM,,inhibition,1.24%
COc1cc(/C=C/C(=O)CC(=O)/C=C/c2ccc(O)c(OC)c2)ccc1O,SARS-CoV-2,"viral replication, high-content imaging screen",,cell-based,,EC50,> 100 µM
Cn1cnc(Cn2c(=O)[nH]/c(=N\c3cc4cn(C)nc4cc3Cl)n(Cc3cc(F)c(F)cc3F)c2=O)n1,,,"human, all renal function groups","oral, 375 mg, vessel puncture site haemorrhage TEAE, Severe severity",,patients with adverse event,0%
CC(=O)[C@H]1CC[C@H]2[C@@H]3CCC4=CC(=O)CC[C@]4(C)[C@H]3CC[C@]12C,SARS-CoV-2,"viral replication, anti-nucleoprotein immunostaining",Vero E6,,,IC50,14.1 µM
Cn1cnc(Cn2c(=O)[nH]/c(=N\c3cc4cn(C)nc4cc3Cl)n(Cc3cc(F)c(F)cc3F)c2=O)n1,SARS-CoV-2,viral replication,"Vero C1008, XBB.1",12.5 µM,,inhibition,100%
COc1ccc(CCN2CCC(Nc3nc4ccccc4n3Cc3ccc(F)cc3)CC2)cc1,SARS-CoV-2,viral replication,"293T-ACE2, USA-WA1/2020",,,EC90,2.19 µM
Oc1ncnc2[nH]ncc12,SARS-CoV-2,viral replication,Huh-7,,,IC50,> 2 µM
COc1cc2c(c(OC)n1)[C@]1(O)[C@H](O)[C@H](CN(C)C)[C@@H](c3ccccc3)[C@]1(c1ccc(C#N)cc1)O2,SARS-CoV-2,viral replication,Vero E6,concentration not given,,activity class,active
O=C(O)[C@H]1O[C@@H](Oc2cc(O)c3c(=O)cc(-c4ccc(O)cc4)oc3c2)[C@H](O)[C@@H](O)[C@@H]1O,rep main protease,"reporter gene (mKate2), inhibitor",,20 µM,,inhibition,-0.977%
CCCCCCC(C)(C)c1cc(O)c2c(c1)OC(C)(C)[C@@H]1CC=C(C(=O)O)C[C@@H]21,SARS-CoV-2,"viral replication, high-content imaging screen",,cell-based,,EC50,> 100 µM
Cc1cc(OCC(O)CN2CCN(c3cccc(Cl)c3)CC2)ccc1Cl (stereo not shown),SARS-CoV-2,cytopathic effect,USA_WA1/2020,"round 1, 5-point",,maximum response,80.4%
CC[C@H](C)[C@H](NC(=O)[C@H](CC(C)C)NC(=O)[C@H](Cc1c[nH]c2ccccc12)NC(=O)[C@H](CCC(N)=O)NC(=O)[C@@H](NC(=O)[C@H](Cc1ccccc1)NC(=O)[C@H](C)NC(=O)[C@H](CCCCNC(=O)COCCOCCNC(=O)COCCOCCNC(=O)CC[C@H](NC(=O)CCCCCCCCCCCCCCCCCCC(=O)O)C(=O)O)NC(=O)[C@H](CCC(N)=O)NC(=O)[C@H](C)NC(=O)[C@@H](NC(=O)[C@H](CCCCN)NC(=O)[C@H](CC(=O)O)NC(=O)[C@H](CC(C)C)NC(=O)C(C)(C)NC(=O)[C@@H](NC(=O)[C@H](CO)NC(=O)[C@H](Cc1ccc(O)cc1)NC(=O)[C@H](CC(=O)O)NC(=O)[C@H](CO)NC(=O)[C@@H](NC(=O)[C@H](Cc1ccccc1)NC(=O)[C@@H](NC(=O)CNC(=O)[C@H](CCC(=O)O)NC(=O)C(C)(C)NC(=O)[C@@H](N)Cc1ccc(O)cc1)[C@@H](C)O)[C@@H](C)O)[C@@H](C)CC)[C@@H](C)CC)C(C)C)C(=O)N[C@@H](C)C(=O)NCC(=O)NCC(=O)N1CCC[C@H]1C(=O)N[C@@H](CO)C(=O)N[C@@H](CO)C(=O)NCC(=O)N[C@@H](C)C(=O)N1CCC[C@H]1C(=O)N1CCC[C@H]1C(=O)N1CCC[C@H]1C(=O)N[C@@H](CO)C(N)=O,,measured: treatment-emergent catheter site bruise,healthy subjects,"0.5 mg, multiple ascending dose",,subjects with adverse event,16.7%
Cc1ccc(C)c(Nc2cc(C(=O)NCCCN(C)C3CCCCC3)c3ccccc3n2)c1,SARS-CoV-2,"cytopathic effect, cell-based CPE",USA_WA1/2020,"round 2, 5-point dilution",,AC50,6.31 µM
O=C(O[C@@H]1Cc2c(O)cc(O)cc2O[C@@H]1c1cc(O)c(O)c(O)c1)c1cc(O)c(O)c(O)c1,SARS-CoV-2,viral replication,Vero E6,6.25 µM,,CPE inhibition,0%
CC(C)(C)[C@H](NC(=O)C(F)(F)F)C(=O)N1C[C@H]2[C@@H]([C@H]1C(=O)N[C@H](C#N)C[C@@H]1CCNC1=O)C2(C)C,SARS-CoV-2,viral replication,Vero E6,0.156 µM,,inhibition,2.72% and 0.5% and 1.1%
Cc1nn(-c2ccc(Cl)cc2)c2c1C(c1ccc(Br)cc1)C(C#N)=C(N)O2 (stereo not shown),SARS-CoV-2,,Vero C1008,10 µM,baseline: positive control,viral titre log reduction,0.238 log10
COC(=O)C1=C(C)NC(C)=C(C(=O)OC)C1c1ccccc1[N+](=O)[O-],SARS-CoV-2,viral replication,Huh-7,,,IC50,> 2 µM
Cc1ccc2nc(C3CCCN(Cc4cccc(-c5cccnc5)c4)C3)[nH]c(=O)c2c1 (stereo not shown),SARS-CoV-2,cytopathic effect,USA_WA1/2020,"round 2, 5-point",,maximum response,74.9%
CCN(CC)C(=O)C1(c2ccccc2)CC1CN (stereo not shown),SARS-CoV-2,viral replication,A549 expressing ACE2,inactive set pIC50 4,,IC50,> 10 µM
CCCCN(C)CCCNC(=O)c1ccc2nc(N3CCCCC3)sc2c1,SARS-CoV-2,cytopathic effect,USA_WA1/2020,"round 2, 5-point",,maximum response,66.5%
Cc1nn(-c2ccc(Cl)cc2)c2c1C(c1ccc(Cl)c(Cl)c1)C(C#N)=C(N)O2 (stereo not shown),SARS-CoV-2,viral replication,Vero,1 µM,,viral reduction,0.222%
CC(C)=CCc1c(O)ccc(C(=O)/C=C/c2ccc(O)cc2)c1O,SARS-CoV-2,viral cytopathic effect,Vero E6,100 µM,,mean inhibition,90%
COc1ccc(-c2nc(CN3CCC(C(=O)NCCCN4CCN(c5ccccc5F)CC4)CC3)c(C)o2)cc1OC,SARS-CoV-2,"cytopathic effect, cell-based CPE",USA_WA1/2020,"round 2, 5-point dilution",,maximal response,73.7%
Cc1ccc(Nc2nccc(N(C)c3ccc4c(C)n(C)nc4c3)n2)cc1S(N)(=O)=O,SARS-CoV-2,,Vero E6,"concentration not given, NYC laboratory",,viral replication inhibition,inactive
Cc1ncccc1-c1nc2cc(C(=O)NCCCc3ccccc3)ccc2o1,SARS-CoV-2,"cytopathic effect, cell-based CPE",USA_WA1/2020,,,AC50,25.1 µM
CCCCCCC(C)(C)c1cc(O)c([C@H]2CC(=O)[C@H]3C[C@@H]2C3(C)C)c(OC(=O)/C=C/C(=O)O)c1,SARS-CoV-2,"viral replication, high-content imaging screen",,cell-based,,EC50,> 50.1 µM
O=C(/C=C/c1ccc(O)c(O)c1/C=C/c1ccc(O)c(O)c1)O[C@H](Cc1ccc(O)c(O)c1)C(=O)O,SARS-CoV-2,viral replication,Vero E6,50 µM,,CPE inhibition,25%
OC1(c2ccc(Cl)c(C(F)(F)F)c2)CCN(CCCC(c2ccc(F)cc2)c2ccc(F)cc2)CC1,SARS-CoV-2,"viral replication, high-content imaging screen",,cell-based,,EC50,> 100 µM
calpain inhibitor III,SARS-CoV-2,viral replication,"Huh-7-ACE2, USA-WA1/2020",,,EC90,0.698 µM
COc1ccc2cc1Oc1ccc(cc1)C[C@H]1c3cc(c(OC)cc3CCN1C)Oc1c(OC)c(OC)cc3c1[C@H](C2)N(C)CC3,SARS-CoV-2,"viral replication, GFP plate reader screen",BetaCov/Belgium/GHB-03021/2020,cell-based,,EC50,3.98 µM
Nc1nc(F)nc2c1ncn2[C@@H]1O[C@H](COP(=O)(O)O)[C@@H](O)[C@@H]1O,SARS-CoV-2,viral replication,Huh-7,,,IC50,> 2 µM
CCCC(C(=O)OCCN(CC)CC)(c1ccccc1)c1ccccc1,SARS-CoV-2,"viral replication, high-content imaging screen",,cell-based,,EC50,> 100 µM
COC1CC2CCC(C)C(O)(O2)C(=O)C(=O)N2CCCCC2C(=O)OC(C(C)CC2CCC(OCCOCc3cn(CCOCCOCCOCCOCCOCCOCCOCCOCCC(=O)NCCCCn4nc(-c5ccc6oc(N)nc6c5)c5c(N)ncnc54)nn3)C(OC)C2)CC(=O)C(C)C=C(C)C(O)C(OC)C(=O)C(C)CC(C)C=CC=CC=C1C (stereo not shown),SARS-CoV-2,,,"concentration not given, Paris laboratory",,viral replication inhibition,inactive

# Repeated from above:
Substance,tested on,test,test system,conditions,how to read,quantity,result
Cc1nn(-c2ccc(Cl)cc2)c2c1C(c1ccc(F)cc1F)C(C#N)=C(N)O2 (stereo not shown),SARS-CoV-2,,Vero,10 µM,,viral titre,544000 IU/mL
Nc1nc(F)nc2c1ncn2[C@@H]1O[C@H](COP(=O)(O)O)[C@@H](O)[C@@H]1O,SARS-CoV-2,viral replication,Huh-7,,,IC50,> 2 µM
Oc1ncnc2[nH]ncc12,SARS-CoV-2,viral replication,Huh-7,,,IC50,> 2 µM
